Measured values collected from several papers.
Compare with care: the assays were run in different laboratories.
Target: Serine/threonine-protein kinase ULK1 (ULK1, Homo sapiens, UniProt O75385)

NC(=O)[C@@H](O)C[C@H]1CCc2sc3ncnc(O[C@H]4CC[C@H](N5CCOCC5)CC4)c3c21
inhibition (enzyme activity, inhibitor; 10 µM): -11%

CCN1CCN(Cc2ccc(C(=O)Nc3ccc(C)c(NCc4cnc5[nH]ccc5c4OC)c3)cc2C(F)(F)F)CC1
remaining binding (binding, competition with immobilised ligand; 1 µM): 52%

CCCCN(CCCC)CC(=O)N1CCN(CC(OCc2ccc3ccccc3c2)c2ccc(Cl)cc2Cl)CC1 (stereo not shown)
activity vs control (enzyme activity, inhibitor, ADP detection; 0.1 µM): 115%

Cc1cnc2nc1Nc1cccc(c1)COC/C=C/COCc1cc(ccc1OCCN1CCOCC1)N2
remaining binding (concentration not given; baseline: DMSO control): 96%

O=C(Cc1ccc(OCc2ccccc2)cc1)NC1(C(=O)O)CCN(C(=O)c2ccc(-c3cccc(Cl)c3)cc2)CC1
activity vs control (enzyme activity, inhibitor; 10 µM): 105%

Clc1ccc(COC(Cn2cnc3ccccc32)c2ccc(Cl)cc2Cl)cc1 (stereo not shown)
activity vs control (enzyme activity, inhibitor, ADP detection; 0.1 µM): 104%

COc1cc(Nc2nc(C)cc(-c3cnn4nc(OC)ccc34)n2)cc(C(F)(F)F)c1
remaining binding (binding, competition with immobilised ligand; 1 µM): 86%

Clc1ccc(C(Cn2ccnc2)OCc2ccc3ccccc3c2)c(Cl)c1 (stereo not shown)
activity vs control (enzyme activity, inhibitor, ADP detection; 0.1 µM): 102%

Cc1ccc(-c2c(/C=C(\C#N)C(=O)NC(C)C)n(CCCO)c3ncnc(N)c23)cc1
remaining binding (cell-free assay, competition with immobilised ligand; 1 µM): 100%

O=C(CN1CCCCC1)N1CCN(CC(OCc2ccc3ccccc3c2)c2ccc(Cl)cc2Cl)CC1 (stereo not shown)
activity vs control (enzyme activity, inhibitor, ADP detection; 0.1 µM): 167%

C=CC(=O)N1CCCC(n2c(=O)c3ncccc3n(Cc3ccc(Oc4ccccc4)cc3)c2=O)C1 (stereo not shown)
remaining binding (cell-free assay, competition with immobilised ligand; 1 µM): 45%

CNC(=O)C[C@H](Cc1ccc(C#N)cc1)NC(=O)c1cc(-c2ccc(CN[C@H](C)c3ccc(C)cc3)o2)ccc1Cl
activity vs control (enzyme activity, inhibitor; 1 µM): 92%

CNC1C[S+]2CC[S+]3CC[S+](C1)[Ru-4]321([N]=C=S)[n]2c3ccc(OC)cc3c3c4c(c5cc(F)c[n+]1c5c32)C(=O)NC4=O (stereo not shown)
remaining binding (KinomeScan; 0.1 µM; baseline: untreated): 71%

CN1CC[C@@H](COc2cnc(C#N)cc2-c2ccn3nc(NC(=O)C4CC4)cc3c2)C1
inhibition (enzyme activity, inhibitor; 1 µM): 2%

CCn1cc(C(=O)O)c(=O)c2c(N)c(F)c(NC3CCCCC3)cc21
inhibition (kinase activity; 0.1 µM, added: ATP at Km): -2.8%

Cc1ccc(C(=O)Nc2ccc(CN3CCN(C)CC3)c(C(F)(F)F)c2)cc1C#Cc1cnc2cccnn12
upper asymptote (target engagement, NanoBRET; human cells): 3.9

CN1CCN(CC(=O)N2CCN(CC(OCc3ccc4ccccc4c3)c3ccc(Cl)cc3Cl)CC2)CC1 (stereo not shown)
activity vs control (enzyme activity, inhibitor, ADP detection; 0.1 µM): 163%

COc1c(Cl)cccc1Nc1c(-c2ccncc2C#C[C@@]2(C)CCCN2C(=O)/C=C/CN(C)C)[nH]c2c1C(=O)NCC2
remaining binding (binding, competition with immobilised ligand; 3 µM): 81%

C[C@H]1CN(C(=O)c2cn(-c3ccnc(N)n3)c3cc(C#CC4(O)CCCCC4)ccc23)CCN1
inhibition (cell-free assay, TR-FRET; 1 µM): -2%

Some of these lines once more:
CCCCN(CCCC)CC(=O)N1CCN(CC(OCc2ccc3ccccc3c2)c2ccc(Cl)cc2Cl)CC1 (stereo not shown)
activity vs control (enzyme activity, inhibitor, ADP detection; 0.1 µM): 115%
